Assay results from different studies.
Every numbered part comes from another study and shows a few of its results, in no order.

Set 1
Target: Interferon regulatory factor 5, full length, phosphomimetic (IRF5, Homo sapiens, UniProt Q13568-2, residues 1-514, K96S/S451D/S453D/S456D/S462D)
Method: protein-binding microarray
Molecule type: double-stranded DNA, one strand shown
Matrix: in vitro
Tested at: 250 nM
Setting: 60-bp whole probe
Added: salmon DNA 0.4 mg/ml
Reference: random background probes
Reading: higher = stronger binding
Constant ends, left off below: GCCTAGCAC … GTCTTGATTCGCTTGACGCTGCTG
For `GACGGTTCCGGTTTCTGGACGTGCTAG`, the log fluorescence was 1.57 z-score.
With `GGTCTTTTCGCTTTCTTTACGTGCTAG` the log fluorescence was 3.59 z-score.
For `TCATTTCTATGTCTGTTACTGTGCTAG`, the log fluorescence was 1.95 z-score.
For `GACGGTTGCGGGTTTCGGGACGTGCTA`, the log fluorescence was 1.83 z-score.
With `TAAGCAAAAATGATTGGTTGGTGCTAG` the log fluorescence was 0.211 z-score.
The log fluorescence of `GACGATCTCAGTATCGGGACGTGCTAG` is reported as 1.73 z-score.
`GACTGACTGCTTTTCCTGACGTGCTAG` gave a log fluorescence of 0.0264 z-score.
For `TCACATTTTCGTTTTGTACTGTGCTAG`, the log fluorescence was 5.08 z-score.
The log fluorescence of `TTAGGGCTCCTACTGCTTTAGTGCTAG` is reported as -0.52 z-score.
`GTTCTACCTCTGCCTTTTGTGTGCTAG` has a log fluorescence of 0.227 z-score.
With `TTAGGACGGGGTCTCGGTTAGTGCTAG` the log fluorescence was -0.216 z-score.
`TTAGATCTCAGCTTCGATTAGTGCTAG` gave a log fluorescence of 1.01 z-score.
`TCACTTCTTTTTTTTCTACTGTGCTAG` has a log fluorescence of 1.5 z-score.
For `GACGGTCTCCTCCTCCTGACGTGCTAG`, the log fluorescence was -0.291 z-score.
With `TTAGAACTGGGGGTTCGATTAGTGCTA` the log fluorescence was 0.453 z-score.
`GACGGACTGGATCTCGGGACGTGCTAG` has a log fluorescence of -0.382 z-score.
The log fluorescence of `TTAGTTTTCGGGACTGGGTTAGTGCTA` is reported as 3.9 z-score.
`GACGATTTCAGTCTCGTGACGTGCTAG` has a log fluorescence of 1.15 z-score.

Set 2
Target: RING finger protein unkempt homolog, zinc fingers 1-6, GST-SBP tag (UNK, Homo sapiens, UniProt Q9C0B0, residues 30-357)
Method: RNA Bind-n-Seq
Molecule type: RNA
Matrix: in vitro
Tested at: not given
Setting: RNA with constant flanks, human-mouse chimeric sites, ends assumed
Reference: input RNA pool
Reading: higher = stronger binding
Target sequence (chain): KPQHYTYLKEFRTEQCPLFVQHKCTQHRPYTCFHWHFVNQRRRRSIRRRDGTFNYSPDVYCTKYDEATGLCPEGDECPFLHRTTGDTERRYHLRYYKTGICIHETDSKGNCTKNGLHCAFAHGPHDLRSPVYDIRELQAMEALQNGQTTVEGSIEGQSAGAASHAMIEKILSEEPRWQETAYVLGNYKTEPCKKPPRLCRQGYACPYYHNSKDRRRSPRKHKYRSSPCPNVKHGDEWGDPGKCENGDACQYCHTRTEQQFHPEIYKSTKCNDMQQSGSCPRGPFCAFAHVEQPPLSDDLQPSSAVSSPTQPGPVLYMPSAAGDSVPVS
`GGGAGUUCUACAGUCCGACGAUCACACAAUAUGAGACCAACAGCAUGGACUUCAAAGUUGGGGCAGAUGGGACAGUCUUCGCCACCCGGGAGCUGCAGGUCCCCUCAGAGCAGGUGGCCUUCACGGUGACUGCAUGGGACAGCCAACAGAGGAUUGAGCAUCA` gave a bound/input enrichment of 0.227 ratio.
`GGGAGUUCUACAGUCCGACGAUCGUGUCCUGCUUUCAACUAUCACUGAGGAGGCAUCUCUACUAUUCUGUGAGCAUCAGGACUGUAGCGCUGUGUCACCACAUGAGAGUUCAGAAGCAGCCUUUCUGUGGAGGGUGGGAAUGACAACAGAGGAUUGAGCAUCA` has a bound/input enrichment of 0.179 ratio.
With `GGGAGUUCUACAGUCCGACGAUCUAAAUUAGGGCUGCCGUUUUCUGUUUCUCCCUGGGCUGCAGACAGCUAGAAGAUUUUAUCUAGCUUAUACAAGGCUGCUGGAGCUUGCUCUUUUUUUCCACGAGGGUGUUUUUGGCUGCACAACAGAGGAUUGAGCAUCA` the bound/input enrichment was 0.53 ratio.
`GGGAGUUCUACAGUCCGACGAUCGUUCGGCUCUGGGAUCAUGCCACAAUGACAGAAGUGAAAUCUCUAAAUUUUAAUAUGUCUGUUAGCAGUAUGGAAUAUAUUCCUGAAGGAGAGAUUUUGGUUAUUACUUAUGGACGAUCUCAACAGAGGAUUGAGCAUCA` gave a bound/input enrichment of 0.862 ratio.
For `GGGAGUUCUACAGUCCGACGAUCAUCAAAUACUUUGGGGACAUCAUUAGUGUGGGACAGAGAUUGUUGCAAGGAGCUCGGAUCUUAGGGAUUCCAGUUAUCAUAACGGAACAAUACCCCAAAGGACUUGGCAGCACCGUUCAACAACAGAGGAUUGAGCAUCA`, the bound/input enrichment was 0.216 ratio.
The bound/input enrichment of `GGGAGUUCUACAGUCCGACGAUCGAAUCCUACUCAGGCGGAUUUUGCAACACCAAGCUCACAGCAGCAGCAUCUUAGUCACAGUUAGGUAGUUUUGGGGCAAUAUUGCCAGGGUUUUAUUCACAUGCAGGUUUGGAAAAUGUACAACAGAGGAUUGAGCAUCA` is reported as 11.6 ratio.
With `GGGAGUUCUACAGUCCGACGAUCAGAUUCCCCCUCCUGAGACCUCCUCCGAAGUUGGAGUCUCUUAUAGAUGCCUCAUCCCCUGUUAGCGUUUUAGUUUGGACCACCCAGCCUUGGACAAUUCCCGCCAACCAGGCAAUUUGCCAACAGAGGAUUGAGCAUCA` the bound/input enrichment was 1.12 ratio.
With `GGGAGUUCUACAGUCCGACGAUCUAAGUCCUGUGCCAGCACUUCGCUCAUAAAGUUUUAAAUUCUGGACCAAUAGUGUUUGUUUCCUGAUUAUUGUAUCCAAUACUUUGCCUAGUAUGUAACUCAUGCUUCUGGAUAAAUAAACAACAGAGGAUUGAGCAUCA` the bound/input enrichment was 1.49 ratio.
With `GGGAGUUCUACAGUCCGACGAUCUUGCCUGAGAACGAGGAUGAGCUGGAGAGCACCAACAGGCGCUACACCAAGAGGGACUGCAGCACUUUCCUCAGAACUAGUGAGACGGGCAUUGUGGACCAGGUCAUGGUCACUCUCAACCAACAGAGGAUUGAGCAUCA` the bound/input enrichment was 0.0764 ratio.
The bound/input enrichment of `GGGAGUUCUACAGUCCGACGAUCGAUAAGAAAAGCUUGUUGGAGACCCGCUUGCAUGUCACUGGCAGAGACCUGAGGUGUCAAAUAGCUGAAACUUUCGGAUUUCAAGAAAAUUACAUCAAAAUUGUCAUAAAUAAGAAACAGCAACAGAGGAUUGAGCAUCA` is reported as 0.336 ratio.
For `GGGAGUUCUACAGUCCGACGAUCUCUGAGGUACCACUGAAGAGACCUUAAAAGGAGUCAUUGAGGGCUCUGUUCGUGCAAGAAUAGUCACUGAUCGGGAAACUGGUUCUUCCAAAGGGUUUGGUUUUGUAGACUUUAAUAGUGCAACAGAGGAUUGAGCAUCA`, the bound/input enrichment was 0.908 ratio.

Set 3
Target: RNA binding protein fox-1 homolog 2, RRM domain, GST-SBP tag (RBFOX2, Homo sapiens, UniProt O43251-10, residues 100-194)
Method: RNA Bind-n-Seq
Molecule type: RNA
Matrix: in vitro
Tested at: 365 nM
Setting: natural RNA segment, single round, ends assumed
Reference: no-protein control
Reading: higher = stronger binding
Construct (chain): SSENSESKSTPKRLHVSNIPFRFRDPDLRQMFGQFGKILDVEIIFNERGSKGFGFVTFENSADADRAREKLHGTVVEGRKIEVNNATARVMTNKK
`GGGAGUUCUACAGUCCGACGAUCGCAGAGCUCUGCCCUGUAGCUCCCUGCCUCAGUUUAUCUUUGCAAUACAAAGCAAAUCCUUCCCCAGCUAUGUGUUUUAGCCUUUGAGUAGGGGAGUUUCGGUGUACACAUGGAAUUCUCGGGUGCCAA` — result for “RBNS enrichment (R)”: 0.488.
Under “RBNS enrichment (R)”, `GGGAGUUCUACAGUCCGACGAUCCCAAAGGACCUGGUUUGAUUCCCAGCACUCACACGGAGGCUCACUGACCACCUGUAACUCCUGUUCCAAAGGUUUCGAUACCUUCUGACCUCUGGGCACCAGGCGUGCACUGGAAUUCUCGGGUGCCAA` is recorded as 0.276.
`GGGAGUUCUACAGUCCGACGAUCUCCUCAUGGUUCAGAUAGCUAUUUCUGAAUGUAUAUUUCAUGGCUUCAAAGCAGCUACUCAACUAACACCUUGCAGUCUUGGAGUUAGUAUAAUACUGCUAAGAGAAGCCUGGAAUUCUCGGGUGCCAA` — result for “RBNS enrichment (R)”: 0.238.
`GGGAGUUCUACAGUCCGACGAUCUUGGAUGAAACAUUCAUUUUUACCUUGUGGAUGCUAGUGCUGUAGAGUUCACUGUUGUACACAGUCUGUUUUCUAUUUGUUAAGAAAAACUACAGCAUCAUUGCAUACUUUGGAAUUCUCGGGUGCCAA`: “RBNS enrichment (R)” 0.686.
For `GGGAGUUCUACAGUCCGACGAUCGGUAUACUCAGUAUGUCCUAGUAAGGAAGGCUUUCCACUCUACUGGCUCCUUAAGAAGCAAAAGUAGGUUAAAUUUUAUACUUCACUGACUAGGGUCUUCUCUCUCCCCUUGGAAUUCUCGGGUGCCAA`, “RBNS enrichment (R)” read 0.194.
Under “RBNS enrichment (R)”, `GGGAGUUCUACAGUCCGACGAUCAGGUGUUAUUCUUAAUGUUUCUGUCAAAGCUUCUUAAAAAUCUUCACUUGGUUUCAGCCAUAGUUCACCUUCCCUGUUCCAGGUUUAUUUAAUUCCAAAGGUGAGAGUUGUGGAAUUCUCGGGUGCCAA` is recorded as 0.321.
For `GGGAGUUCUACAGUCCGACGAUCUGGUUUUAUCUAAUAGUUUUACUAUGGAAAUCGCCUUUUGAUAUUAAAGCCAGAUUUUAGAGGUUUGAUAUGUUUGGUCUCAGGAGCUCAAAAGAAGUAGCUUUUUCCAGUGGAAUUCUCGGGUGCCAA`, “RBNS enrichment (R)” read 0.704.
For `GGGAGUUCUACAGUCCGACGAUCGUGUAUCAGCACUCAGCUCCCACAGAAGUCAAGUCACAAAAUAUAGUGUCAGUUAACUAUAAGGAAGUUCCGGAGAGGUAAAGCUCAGGAAAGAUGUAAUGCAAAGCUGAUGGAAUUCUCGGGUGCCAA`, “RBNS enrichment (R)” read 0.799.
For `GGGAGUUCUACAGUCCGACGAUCCUCCCUGCCCAGGUUGUCCCUGGAGGGCAGCCCUCACUCCCUUUGGGGGAGAGGCAGACAUUGCUGCCCACAGACCUGCCUCUGACUCAACUGUGUCCACCCUCCCUGGUUGGAAUUCUCGGGUGCCAA`, “RBNS enrichment (R)” read 0.303.

Set 4
Target: Sal-like protein 4, full length isoform B (SALL4, Homo sapiens, UniProt Q9UJQ4-2, residues 1-616)
Method: universal PBM
Molecule type: double-stranded DNA, one strand shown
Matrix: in vitro
Tested at: not given
Setting: 8-mer, flanks averaged, mean of replicates
Reading: higher = stronger binding
`AAGCAAGT` gave an E-score of 0.0821.
The E-score of `AATACTAG` is reported as 0.208.
For `ATCGCACG`, the E-score was 0.00145.
`GCAAAGGA` has an E-score of -0.0853.
`CAAAATAA` gave an E-score of 0.308.
With `CTTGCGTC` the E-score was -0.246.
`GCTACCAA` gave an E-score of 0.0258.
The E-score of `TCAAGGAA` is reported as 0.0542.
For `ACCTATCC`, the E-score was -0.0109.
`TGGGAAAA` gave an E-score of 0.0299.
The E-score of `CACTTTCG` is reported as 0.17.
With `CAGCCAAC` the E-score was -0.112.
`TCCAACAA` gave an E-score of 0.129.
`GTCTTCAC` has an E-score of -0.0887.
With `TCAGCCCA` the E-score was -0.202.
For `AATTCCGC`, the E-score was -0.0488.
The E-score of `AATATCAT` is reported as 0.376.
`AAAGGTAT` gave an E-score of 0.162.
The E-score of `ACCCCGGA` is reported as -0.192.
`AACAGAGG` has an E-score of -0.13.
`AGTAGGGG` gave an E-score of -0.0556.
`CCACGTCG` gave an E-score of -0.226.
`AAATCAAC` has an E-score of 0.111.
`ATCCACTA` has an E-score of 0.0854.
`GCTAAACA` has an E-score of 0.0455.
